Experimental data from different studies.
Parts stem from different laboratories: compare values within a part only. Positions count from the first letter of the parent shown.

Block 1 — method: RNA Bind-n-Seq; form: RNA; matrix: in vitro; tested at: 365 nM; reference: no-protein control; reading: higher = stronger binding; measurement: RBNS enrichment (R)
Target: RNA binding protein fox-1 homolog 2, RRM domain, GST-SBP tag (RBFOX2, Homo sapiens, UniProt O43251-10, residues 100-194)
Notes: natural RNA segment, single round, ends assumed
Shared flanks, not repeated: GGGAGUUCUACAGUCCGACGAUC … UGGAAUUCUCGGGUGCCAA
Construct (chain): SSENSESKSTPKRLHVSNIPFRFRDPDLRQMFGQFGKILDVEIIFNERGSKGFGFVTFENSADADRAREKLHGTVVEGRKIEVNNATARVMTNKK
UUAAUGUUUCUUAGAGCCAAGUGUCUUUUAAACAUUAUUUUUUAUUUCUGAUUUCAUAAUUCAGAACUAAAUUUUUCAUAGAAGUGUUGAGCCAUGCUACAGUUAGUCUU: 0.43
UAAGGGGAGUAUCUCUCACGACCCUAAAUUCUGCCUCCAGCUGUGCCCAGUGAAAGACCUCAAGUCUGCCUCCAGCCAUGCCCAAGGCAGGAACCCUGGAAGAGAAGCGC: 0.248
UCAUUUAUUUGCUUAAAUGGAAAGUGUGGGAGCCACUACCCUCUCUUUUGAUCUGCCAAGGAUUUCCUCUCAGAGCUGUUGCACAGACAGAGAUUGUACUUGGUAAGAUA: 0.254
UACCCCAGUUUUACAAAUGGCUAAGCUGAAGCAGAGAUGUUGAAGGAUCCUACCUAAGGGGCACAACUAGUAAGGGAGUAGAGCUGAGAUUGGCUCCAGAGUUCUUGUUU: 0.179
GAGAAAUAGCAAGCAUGUCCUGUUGCUUAACGUGUCCUUGUGAAUUGCUUGGUUUUGAUUAAAGUCUGAGCCUGAUACUGAUAUGAUUUUAAAGCGUAGCUGAACCGACU: 17.9
GCCUGGGUGACAGAGCGAGACUUUGUCCCAAAACAAAAUAGGUGAGGGGAUAGCGAAUGCACUCAGGGUCAGCAGUGGAGUUUAAAAAUUGUCUCUUUUCAACUUAUUUA: 1.07
UUUUUUAAACCUGAUAUUUUCAUUCCUAAUUGAGUGACAGCCAUCUUUUAAGGUGUUGGGCAUGGAACCCCAGGCCUUACCUGCUUGGCAAGUGCUUUACCCCCGAACUA: 0.413
AAUGGAAAUCCCUUGACAUCUACUACCUCUUCCCCUUCUCUCUGAAACAGCUGCCUUAGCUUCAGGAACCUUGAGUACUGUGGGCAAUUUAGAAAACGGAAAUGCAGUUU: 0.304
CUGUACGGAAUGCCCUUUGCUAGCCAUGGGCUGGUCACCAGAUUGUUUUGUAAUGCCCGCCCCUUGCCUCGAUAUUGCCAGUUUCUUGUGCAAUAAACAAUCAGCAGCUG: 1.96
UCCGUAUUAAACGCAUUUGCAUUUUGAGAAGUGUCCUUCCCACUUCAGCCCUCCGGAGAGACUACCCUAGUCUUUCUGGGGUGUUUAUGUCCUCAGCUGAAGCCUGGCCU: 2.58
UGUCCCCGCCCCAGCCGUCCUCCUGGGGUGGACCCUAGUUUAAUAAAGAUUCACCAAGUUUCACGCAUCUGCUGGCCUCCCCCUGUGAUUUCCUCUAAGCCCCAGCCUCA: 1.7
GCUUAGAACACUAGCUUCCUGUUACGCUUCAUCUAAAAUGCAAAUUCUUACACCCAGCUUACGAGAUCUGGCUCAUACCUUCCCUUUGGAUCUCAUUAAAUGGUGAUUUC: 1.84

Block 2 — method: DHFR PCA, deep sequencing; matrix: yeast; added: (+)-ABA 0.39 µM; reference: wild-type fitted maximum; reading: higher = stronger binding; measurement: relative binding score
Target: ABI1, truncated, D143A, DHFR fusion (Arabidopsis thaliana)
Notes: methotrexate growth selection, single substitutions
Starting sequence: PYL1, truncated, DHFR fusion (Arabidopsis thaliana); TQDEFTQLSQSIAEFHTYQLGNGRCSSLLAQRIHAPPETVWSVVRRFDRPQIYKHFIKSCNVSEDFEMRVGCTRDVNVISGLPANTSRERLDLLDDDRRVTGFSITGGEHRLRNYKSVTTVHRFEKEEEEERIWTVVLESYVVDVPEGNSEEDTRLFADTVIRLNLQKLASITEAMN
S42G: 35.9%
L28D: 3.96%
E139A: 11.3%
A158M: 4.78%
V145T: -14.6%
D95W: -4.75%
T119G: -11%
T173P: -6.11%
S59A: 27.1%
R90D: -17.2%
S117Q: -0.316%
T106N: -3.02%
N149C: 52.9%
G102K: -9.17%
S150Q: -0.119%
G81D: 7.67%
E152C: 6.28%
E131N: 65.9%
Q19Y: 11.4%
T173K: -37.1%
E67D: 41.2%
S150A: 20.2%
V137M: -10.8%
D95Y: 3.12%

Block 3 — target: FOSL2, bZIP domain (human); method: DHFR protein complementation; matrix: yeast; reference: wild-type JUN-FOS pair; reading: higher = stronger binding; measurement: binding fitness
Notes: single substitutions, most at no-binding floor
Starting sequence: JUN, bZIP domain (human); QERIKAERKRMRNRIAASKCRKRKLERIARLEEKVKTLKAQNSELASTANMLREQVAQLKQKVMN; partner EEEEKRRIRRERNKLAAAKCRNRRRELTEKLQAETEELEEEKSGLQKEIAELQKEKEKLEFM
L52T: -0.583 natural log
I28F: -0.109 natural log
S43P: -1.02 natural log
K34F: -0.28 natural log
E33M: -0.033 natural log
R30I: 0.0552 natural log
N42K: -0.118 natural log
L31Y: -0.109 natural log
K36E: 0.0228 natural log
K39H: -0.0987 natural log
E44N: -0.0781 natural log
A49L: 0.0968 natural log
E44W: -0.284 natural log
A40H: 0.0546 natural log
L45F: -0.395 natural log

Block 4 — target: CCNF, cyclin fold, Cln2 fusion (human); method: yeast growth competition, sequencing; matrix: yeast; notes: strong parent motif; reference: not given; reading: higher = stronger binding; measurement: normalised enrichment score
Starting sequence: E2F1 docking peptide (human); PPVKRRLDLETDH; partner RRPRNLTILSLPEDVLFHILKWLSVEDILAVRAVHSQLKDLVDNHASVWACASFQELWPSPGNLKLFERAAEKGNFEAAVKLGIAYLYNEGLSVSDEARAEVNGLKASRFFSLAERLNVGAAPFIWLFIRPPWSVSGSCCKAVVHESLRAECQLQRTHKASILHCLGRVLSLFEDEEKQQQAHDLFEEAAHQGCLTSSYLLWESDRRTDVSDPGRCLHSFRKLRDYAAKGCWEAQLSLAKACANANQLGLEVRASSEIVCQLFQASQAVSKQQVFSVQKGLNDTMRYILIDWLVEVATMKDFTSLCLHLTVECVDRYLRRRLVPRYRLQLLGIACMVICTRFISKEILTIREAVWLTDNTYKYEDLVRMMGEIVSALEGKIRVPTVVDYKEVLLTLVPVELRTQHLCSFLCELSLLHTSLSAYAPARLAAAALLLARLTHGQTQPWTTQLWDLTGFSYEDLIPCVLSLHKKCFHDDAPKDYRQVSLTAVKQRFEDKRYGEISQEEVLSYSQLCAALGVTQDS
V3S: 3.75
D8I: 7.91
P1D: 3.76
P1R: 6.54
R5A: -0.0343
D8S: 5.06
R6A: 2.63
D12W: 7.52
K4A: 6.41
D12L: 7.46
K4P: 2.92
D12G: 6.73
T11K: 5.78
P2T: 6.05
D12I: 6.3
P2H: 6.52
P1E: 4.63
K4G: 3.14
L7S: -0.594
D8R: 7.38
K4C: 7.44
T11L: 7.15
D12Q: 7.03
T11D: 6.05
E10S: 5.51

Block 5 — method: RNA Bind-n-Seq; form: RNA; matrix: in vitro; tested at: not given; notes: RNA with constant flanks, ends assumed; reference: input RNA pool; reading: higher = stronger binding; measurement: bound/input enrichment
Target: RING finger protein unkempt homolog, zinc fingers 1-6, GST-SBP tag (UNK, Homo sapiens, UniProt Q9C0B0, residues 30-357)
Shared flanks, not repeated: GGGAGUUCUACAGUCCGACGAUC … CAACAGAGGAUUGAGCAUCA
Residues (chain): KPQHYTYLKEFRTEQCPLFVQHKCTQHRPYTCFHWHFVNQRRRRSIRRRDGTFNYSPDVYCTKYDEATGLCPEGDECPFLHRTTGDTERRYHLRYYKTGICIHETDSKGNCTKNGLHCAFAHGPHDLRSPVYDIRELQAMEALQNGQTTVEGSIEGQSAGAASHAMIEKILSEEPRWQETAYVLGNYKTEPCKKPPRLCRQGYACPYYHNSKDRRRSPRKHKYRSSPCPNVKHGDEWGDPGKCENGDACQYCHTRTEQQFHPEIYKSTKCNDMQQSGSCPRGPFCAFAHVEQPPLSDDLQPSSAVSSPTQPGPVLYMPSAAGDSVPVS
GGUGGGACGGAAAAGACAUCACAGUAUGCAGGAAGGCUUGGGUUUGCUCAAAGUACCAGGUACCGGGAUGAACCUCUGAUGGGCUCUCUGCCCUAGAGUUGGGCAGCCUUCUCACCCCAG: 0.187 ratio
UUUCUGAAAAUCCAAAGUCAGGAAGCCAAGUGUGCGAAGGGUUAGUGACGCCUCUGGCAACCGCUUUGGCUUGCCCUGGGCCAUACUCUGUCAGCACUGAAAGGAGGUUUAAAUACUAUG: 0.0807 ratio
CAGUCUUCUAUGUCUAUUGAGUUCGGCCAGGAAUCCCCUGAGCAUUCUCUUGCUAUGGACUUCCGUCGGCAGUCUCCAGAUCACCCUACUCUGGGUGCCAGUGUGCUUCAUAUCACUGAA: 0.242 ratio
GACCCCUUGAUGGCCCAAGAAUCCCAUAUGCUAGCUUCUAACACCAUGGAGACCCAUAUGUCCGCAUCCAAUACCAUGGACUCCCAGAUGCUAGCAUCCAACACUAUGGAUUCUCAGAUG: 0.195 ratio
CCUAGUAAAGAUGUUGUGAUGGUACAUGAACCAAAACAAAAAGUAGAUUUAACAAGGUACCCCGAAAACCAAACAUUUCGUUUUGAUUAUGCCUUUGAUGACUCAGCUCCUAAUGAAAUG: 8.15 ratio
GUCAUUUUUUUUCUUUGAAUAAAUGUCACUUUUUGAGGCAAAAGAAGGAACCGUGAACAUUUCCGACACCCUUUUCUUUGGGGUAGGCUCUUGCCCCAGGCGCCGGCUCUUCUCCCAAAA: 0.323 ratio
CCUGCAAUUGUUCAUAUUAACCACCAGCCAUACUUGGAAAGGGGAGAUGGCCCAAUCUGUCCCGUUCUGGCUCCUACCAGAGAGCUUGCCCAGCAAGUACAGCAGGUGGCCGAUGACUAU: 0.155 ratio
GCUCCCACUGCAGCCUCGAGUGCCCCUGUCCCACCUGGCUCCCCCUGCUGGUGUCCCGUGUUUUUUUCCCUCUCCUGUCCUUGUGUUGAAGGCAGUAAACUAAGGGUGUCAAGCCCCAUU: 0.592 ratio
AAGGAUUGUAAAUCCUAUAGUGUGGGUGUAGCAUAUAAAACUUUAGGAAAAUUUGAUCAGUCCGGAAAGACAAAUACUAGUUGGUGCGUUCACGUCAACAGCUGGUUACAGAACACAUUU: 66.7 ratio
UAUGCAUUUAUAUAACUGUUUUGUUAUUUGAAUCUUGGAAAACUAGUUUUAUUAUAUUCAGACCGCCUUGUUUUUUAAAAAGGCCUUUGCAUACACCUUUAUGAGAUAGUGUAAAAUUGA: 58.8 ratio
AUUCUUACAGAUAAAAACUGUAUAUGUUUAUAAAUAGUUAUAAAGAACUAUUUUAUAUAACCGCUAUUAUCAUUGUAGAAAUGACUUACAAAUACAAAAUGUGUAUGUAAAUACUUUCUG: 0.215 ratio

Excerpt of the above (block 1):
UAAGGGGAGUAUCUCUCACGACCCUAAAUUCUGCCUCCAGCUGUGCCCAGUGAAAGACCUCAAGUCUGCCUCCAGCCAUGCCCAAGGCAGGAACCCUGGAAGAGAAGCGC: 0.248
UCAUUUAUUUGCUUAAAUGGAAAGUGUGGGAGCCACUACCCUCUCUUUUGAUCUGCCAAGGAUUUCCUCUCAGAGCUGUUGCACAGACAGAGAUUGUACUUGGUAAGAUA: 0.254
UACCCCAGUUUUACAAAUGGCUAAGCUGAAGCAGAGAUGUUGAAGGAUCCUACCUAAGGGGCACAACUAGUAAGGGAGUAGAGCUGAGAUUGGCUCCAGAGUUCUUGUUU: 0.179
GAGAAAUAGCAAGCAUGUCCUGUUGCUUAACGUGUCCUUGUGAAUUGCUUGGUUUUGAUUAAAGUCUGAGCCUGAUACUGAUAUGAUUUUAAAGCGUAGCUGAACCGACU: 17.9
GCCUGGGUGACAGAGCGAGACUUUGUCCCAAAACAAAAUAGGUGAGGGGAUAGCGAAUGCACUCAGGGUCAGCAGUGGAGUUUAAAAAUUGUCUCUUUUCAACUUAUUUA: 1.07
UUUUUUAAACCUGAUAUUUUCAUUCCUAAUUGAGUGACAGCCAUCUUUUAAGGUGUUGGGCAUGGAACCCCAGGCCUUACCUGCUUGGCAAGUGCUUUACCCCCGAACUA: 0.413
